Earlier results that unrelated publications cite.
Compare with care: the assays were run in different laboratories. ± gives the spread as reported.

With CN1CCN(c2cc(-c3ccccc3CO)c(N(C)C(=O)C(C)(C)c3cc(C(F)(F)F)cc(C(F)(F)F)c3)cn2)CC1 the AUC(0-inf) was 5840 ng·h/mL (healthy volunteers, plasma; oral, 300 mg, fasted, fixed-dose combination, with: palonosetron 0.5 mg).
With C=C[C@@H]1C[C@]1(NC(=O)[C@@H]1C[C@@H](Oc2nccc3ccccc23)CN1C(=O)[C@@H](NC(=O)OC(C)(C)C)C(C)(C)C)C(=O)NS(=O)(=O)C1CC1 the half-life was 132 min (rat, plasma; dose not given).
For O=C([O-])CN1CCN(CC(=O)[O-])CCN(Cc2cc(-c3ccc(OCC(=O)O)cc3)cc(C(=O)[O-])n2)CCN(CC(=O)[O-])CC1.[Eu+3], “Eu3+ luminescence lifetime” read 1.1 ms.
CN(Cc1nc2c(N)nc(N)nc2[nH]c1=O)c1ccc(C(=O)NC(CCC(=O)O)C(=O)O)cc1 (centres unmarked): plasma detection “not detected” (patients on methotrexate; dose not given, conventional-dose methotrexate).
CC(C)S(=O)(=O)c1cccc(O)c(=O)c1O gave a pKa1 of 3.8.
For Cc1ccc(O)c(CN(CCN(Cc2ccccn2)Cc2ccccn2)Cc2ccccn2)c1, the pKa2 was 10 (25 °C).
For O=[N+]([O-])c1ccc(/N=N/c2ccc(N(CCS(=O)(=O)O)CCS(=O)(=O)O)cc2)cc1, the pKa was 2.1 (water; 10 µM).
Cc1ccccc1-c1cc(N2CC[N+](C)([O-])CC2)ncc1N(C)C(=O)C(C)(C)c1cc(C(F)(F)F)cc(C(F)(F)F)c1 has a Cmax of 228 ng/mL (healthy volunteers, plasma; oral, 450 mg, single dose, netupitant alone).
With CC(=O)c1cnc(N)nc1N1CC[C@H]1c1nn2ccc(Cl)c2c(=O)n1-c1ccccc1 the plasma clearance was 3.3 ± 0.1 mL/min/kg (female Wistar rat; intravenous, 2.5 mg/kg).
With Cc1ccccc1-c1cc(N2CCNCC2)ncc1N(C)C(=O)C(C)(C)c1cc(C(F)(F)F)cc(C(F)(F)F)c1 the Cmax was 46.8 ng/mL (healthy volunteers, plasma; oral, dose not given, netupitant-palonosetron, fed).
With CCC1=C(C)c2cc3[nH]c(cc4nc(c5c6[nH]c(cc1n2)c(C)c6C(=O)C5)[C@@H](CCC(=O)OC)[C@@H]4C)c(C)c3C(C)OCc1cccc([124I])c1 (some centres unmarked) the tumour uptake was 4 to 5 % injected dose (mice with Colon 26 tumours, tumour; 24 h).
With C=C[C@@H]1C[C@]1(NC(=O)[C@@H]1C[C@@H](Oc2cc(-c3ccccc3)nc3cc(OC)ccc23)CN1C(=O)[C@@H](NC(=O)OC(C)(C)C)C(C)(C)C)C(=O)NS(=O)(=O)C1CC1 the tissue concentration was 0.004 µM (rat, plasma; dose not given, 8 h post-dose).
Nc1ncnc2c1ncn2[C@H]1C[C@H](O)[C@@H](COP(=O)(O)OP(=O)(O)[C@@H](Cl)P(=O)(O)O)O1 has a pKa4 of 9.5 (item: bisphosphonate leaving group; aqueous solution; measured experimentally).
COCCOCCOCCOCCC(=O)NCc1cc(CNC(=O)CCOCCOCCOCCOC)cc(-c2cc3cc4nc(c(OC)c5[nH]c(cc6nc(cc2[nH]3)CC6(C)C)cc5-c2cc(CNC(=O)CCOCCOCCOCCOC)cc(CNC(=O)CCOCCOCCOCCOC)c2)CC4(C)C)c1 — result for “internal conversion yield”: 0.38 (DMF; room temperature).
Under “share of plasma radioactivity”, COc1cc2ncnc(Oc3ccc4c(C(N)=O)c(C)oc4c3)c2cc1OC is recorded as about 17% (human, plasma; dose not given, circulating metabolite).
CNCCCOc1cc(F)c(-c2c(Cl)nc3ncnn3c2N[C@@H](C)C(F)(F)F)c(F)c1 gave an oral bioavailability of 61% (mouse; oral).
Under cardiovascular function, Cc1cc(N)nc(C[C@@H]2CNC[C@@H]2OCCNCCc2cccc(F)c2)c1 (racemic) is recorded as “no effect” (pregnant rabbits; dose not given).
With Oc1cc2nc(c1)CNCCCNCCCNCCNCCCNCCCNC2 the log β was 54.2 (0.15 M NaClO4; 298.1 K, sum of protonation log K).
Cc1cc(C(=O)O)ccc1Sc1ccccc1N1CCNCC1 gave a metabolic ratio of about 1 (plasma; vortioxetine; relative to: metabolite AUC over vortioxetine AUC).
COC(=O)c1cc(=O)n(C)c2cc(-c3ccc(OC)cc3)sc12 gave an emission maximum of 472 nm (dichloromethane; 10 µM).
With NCCCC[C@H](NC(=O)[C@@H]1CCCN1C(=O)[C@@H]1CSSC[C@H](NC(=O)CNC(=O)CNC(=O)CN)C(=O)N[C@@H](Cc2ccc(O)cc2)C(=O)N[C@@H](Cc2ccccc2)C(=O)N[C@@H](CCC(N)=O)C(=O)N[C@@H](CC(N)=O)C(=O)N1)C(=O)NCC(N)=O the distribution half-life was 8 to 50 min (concentration not given).
c1csc(CNc2cc[nH]n2)c1 gave a Cmax of 9780 ng/mL (male mice, plasma; oral, 20 mg/kg, dosed as HCl salt).
O=C([O-])CN1CCN(CC(=O)NCCN(Cc2ccccn2)Cc2ccccn2)CCN(CC(=O)[O-])CCN(CC(=O)NCCN(Cc2ccccn2)Cc2ccccn2)CC1.[Eu+3]: “TSAP isomer fraction” about 40% (Eu(III) complex).
The elimination half-life of CC(C)(C)[C@H](NC(=O)[C@H](CCONC(=N)N)NC(=O)Cc1ccc(CNC(=N)N)cc1)C(=O)N[C@@H](CCONC(=N)N)C(=O)NCc1ccc(C(=N)N)cc1 is reported as 30 min (mouse; intraperitoneal, 2.5 mg/kg).
With COc1cc2c(NC3CCN(C)CC3)nc(N3CCCN(C)CC3)nc2cc1OCc1ccccc1 the logD was 4.2 (pH 7.4).
For CN1CCC(C)(C)c2cc3c(-c4ccc(C(=S)N5CCCCC5)s4)c4ccc(=[N+](C)C)cc-4sc3cc21, “molar extinction coefficient” read 61800 M⁻¹ cm⁻¹ (methanol).
[99Tc+].[C-]#[N+]CC(C)(C)OC.[C-]#[N+]CC(C)(C)OC.[C-]#[N+]CC(C)(C)OC.[C-]#[N+]CC(C)(C)OC.[C-]#[N+]CC(C)(C)OC.[C-]#[N+]CC(C)(C)OC has a biliary recovery of about 22% (healthy human; intravenous, 3.1 mCi, time not given; relative to: dose).
Under “heart rate change”, C=C[C@@H]1C[C@]1(NC(=O)[C@@H]1C[C@@H](Oc2ncc(OC)c3cc(Cl)ccc23)CN1C(=O)[C@@H](NC(=O)OC(C)(C)C)C(C)(C)C)C(=O)NS(=O)(=O)C1CC1 is recorded as -11% (isolated perfused rabbit heart; 10 µM).
With CCN(CC)C(=O)c1ccc(-c2c3ccc(=[N+](C)C)cc-3sc3cc4c(cc23)C(C)(C)CCN4C)s1 the logP was 1.4 (n-octanol/water).

Repeated from above:
CNCCCOc1cc(F)c(-c2c(Cl)nc3ncnn3c2N[C@@H](C)C(F)(F)F)c(F)c1 gave an oral bioavailability of 61% (mouse; oral).
Under cardiovascular function, Cc1cc(N)nc(C[C@@H]2CNC[C@@H]2OCCNCCc2cccc(F)c2)c1 (racemic) is recorded as “no effect” (pregnant rabbits; dose not given).
With Oc1cc2nc(c1)CNCCCNCCCNCCNCCCNCCCNC2 the log β was 54.2 (0.15 M NaClO4; 298.1 K, sum of protonation log K).
